Measurements of several laboratories.
Every numbered part comes from another study and shows a few of its results, in no order.

Series 1
Target: RNA binding protein fox-1 homolog 2, RRM domain, GST-SBP tag (RBFOX2, Homo sapiens, UniProt O43251-10, residues 100-194)
Method: RNA Bind-n-Seq
Form: RNA
Matrix: in vitro
Concentration: 365 nM
Notes: natural RNA segment, single round, ends assumed
Baseline: no-protein control
Reading: higher = stronger binding
Constant ends, left off below: GGGAGUUCUACAGUCCGACGAUC … UGGAAUUCUCGGGUGCCAA
Target sequence (chain): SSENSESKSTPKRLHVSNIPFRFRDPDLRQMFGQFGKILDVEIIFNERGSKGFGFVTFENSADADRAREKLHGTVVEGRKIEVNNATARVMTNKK
Oligonucleotide | RBNS enrichment (R)
GUGGCCUUCCAAAAUAGGUAGUGUUUGCCUAUGUGGAAACAACAGCAAACUAACACCAAGUGCCAGAGUCCUGGAUGUGCAAUUGGUUUAAGUGUUCAUGUUCUAGUGAA | 0.314
CGGCUUUCCAGUGCGGAGAGUCGAGAUGCUCCCUGCAGCCCAGGCCCCGGGCACCUCCUGCAACCAUCUCUGGGCUCAGCACCUGAGGCGGGUUUCCUGGGUCCCCUCUC | 0.364
GUGUGUGUCCUGCCUGUAUAUGUGGCUUCCUCUGAUGCUGACAAGGUGGGGAACAAUCCUUGCCAGAGUGGGCUGGGACCAGACUUUGUUCUCUUCCUCACCUGAAAUUA | 0.678
UUUUCUUGGCAAGUUUUAUUGUGAGUUUUUCUAAUUAUGAAGCAAAAUUUCUUUUCUCCACCAUGCUUUAUGUGAUAGUAUUUAAAAUUGAUGUGAGUUAUUAUGUCAAA | 0.932
UCUGGAGCGCCCCCGUCAGCCCCUGGCGGUGGGAGGUGAGAGCGAGUGGUUUAAGUGCCUGAUUACCACCACCCGCCCCCCCCUUUGUCCAGCUGGGACACGGAAUGGCC | 2.44
GUAGUCCUGUGGAGGAGGAGGGUCCUCCCAGGAGGACCUGUGUGUUCUUUCAAAGCCUUAGAGUGGCGCUACACCGGCCAGCUGGCUUAGCUGCAGGAAGGCCUCUUAGC | 0.401
CCUGGGACUCCUUCCUCAAGAUCUGGAACUAUGGCCCCACCCCCACUGGGCCCAGGCCAGGAGGGGCCCUGCCCAUGCCCACACUACAGGCCAGGGCUGCGGGGCUGGCG | 0.466
AAAGAGAUGAAGGAAGGAAGGAAGAGAAAAACAAAGUCAUUUGUUCAUAGUGAGGUCUCCAGCUAUGUACAUGCCGUCAGUCCUCUGGUCUCUUGAAUGUAGCCCCACCC | 0.267
UGAAAGUGUAAUAAUAAAAUGUCUAUGUAUCUUUAGUUACAUUCAAAUUUGUAACUUUAUAAACAUGUUUUAUGCUUGAGGAAAUUUUUAAGGUGGUAGUAUAAAUGGAA | 1.46
UGUAUUUUGAGUUAUUCCAACAGAGAUGAUGGAUUCCUGUAGAACUAGAGGUGGGUGACCUAUGGUUAUGUGGCACGGCAAAGCAAGUACCUCUUAAGGGACUCUAAUAU | 1.18
CAGUCACUUCCCUCCCCAGGCCCCAAAGCACCCCAAGGCUGGUAUUCCUUGAGUCAUAGGUAUUAAUAAUAAAAGCCUCAAUGCAGCUUCUCCAUGUAGUUCCUCUCCUA | 0.517
ACCUCACAUUUCUAAAAGACCUCCUUCCUCAAGAGACAAAUGAAGGCAAAAUAAUCACACUCAGCAAACAGGAGAUGUUCUGCUCAGAUAUGAAUUUUCAAUGCAGCAAA | 0.394

Series 2
Target: Histone acetyltransferase KAT6A, both winged helices, GST fusion (KAT6A, Homo sapiens, UniProt Q92794, residues 1-181)
Method: protein binding microarray
Form: double-stranded DNA, one strand shown
Matrix: in vitro
Concentration: not given
Notes: 8-mer, flanks averaged, mean of 2 arrays, mostly near background
Baseline: not given
Reading: higher = stronger binding
Target sequence (chain): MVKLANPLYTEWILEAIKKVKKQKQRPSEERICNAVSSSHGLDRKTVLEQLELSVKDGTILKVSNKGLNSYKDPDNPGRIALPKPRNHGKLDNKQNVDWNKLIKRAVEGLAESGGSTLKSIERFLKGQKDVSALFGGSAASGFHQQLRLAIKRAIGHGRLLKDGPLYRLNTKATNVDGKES
Oligonucleotide | E-score
GTACGCAC | 0.188
ATGCGGTC | 0.122
GGGTAGAC | 0.116
ACTAGGCG | 0.0998
GGACACCC | -0.0562
CAGGCCTA | -0.122
AAAACAAC | -0.179
GCGACAGA | 0.135
ACTGAGTC | -0.0133
ATCCCGGC | 0.279
ACATTGAG | -0.0227
CCTACTTC | -0.155
CGGCGCCC | 0.299
GCAGTATA | -0.0572
AAGGCCGC | 0.223
GCAGCGAC | 0.102
CATGATGC | 0.0338

Series 3
Target: Fragile X messenger ribonucleoprotein 1, C-terminal low-complexity region (Fmr1, Mus musculus, UniProt P35922)
Method: RNA Bind-n-Seq
Form: RNA
Matrix: in vitro
Concentration: 200 nM
Notes: whole 134-nt RNA, ends assumed
Added: 150 mM KCl
Baseline: input library
Reading: higher = stronger binding
Constant ends, left off below: GGGAGUUCUACAGUCCGACGAUC … UGGAAUUCUCGGGUGUCAAGG
Oligonucleotide | log2 enrichment
CAAGUCCUGUGCUACACAUCGUAUGUACCGAAUCGGGGUGGGGAGGGGAAAGGGGAAAGUAUUAUGUUACGCCGUUCGGAUCUGCACUUC | 1.2
AAGUCCUGUGCUACACAUCGUAUGUACCGAAUCGGAAAAAAAGGAGGUUUUUUUGGAAAGUAUUAUGUUACGCCGUUCGGAUCUGCACUU | -1.01
CCUGUGCUACACAUCGUAUGUACCGAAUCGGGAAAAAAAGGGAAAAAGGGUUUUUUUGGGAAAGUAUUAUGUUACGCCGUUCGGAUCUGC | -0.765
AAGUCCUGUGCUACACAUCGUAUGUACCGAAUCGGUUUUUUUGGAAAAAGGUUUGGAAAGUAUUAUGUUACGCCGUUCGGAUCUGCACUU | -1.38
UGGCCCUGGUGGCAUGCGGGGAGGAAGAGGUGGCCUCAUGGAUCGUGGUGGUCCCGGUAGAAUGUUCAGAGGUGGCCGUGGUGGAGACAG | 0.0192
GUCCUGUGCUACACAUCGUAUGUACCGAAUCGGGGAAAAAGGGGUUUGGGGAAAGGGGAAAGUAUUAUGUUACGCCGUUCGGAUCUGCAC | 0.448
UGGGAGGUGGAUUUUGUUUAUUUUUUUAGCUCAUUUCCAGGUGUGGGAAUUUUUUUUUAAUAUGUGUCAUGAAUAAAGUUGUUUUUGAAA | -0.0794
CAAGUCCUGUGCUACACAUCGUAUGUACCGAAUCGGGUUUUUUUGGGAGGGUGGGAAAGUAUUAUGUUACGCCGUUCGGAUCUGCACUUC | 1.05
UGGGAGGUGGAUUUUGUUUAUUUUUUUAGCUCAUUUCCAGGGGUGGGAAUUUUUAUUUAAUAUGUGUCAUGAAUAAAGUUGUUUUUGAAA | 0.403
GUCCUGUGCUACACAUCGUAUGUACCGAAUCGGGGUUUUGGGGUUUUGGGGUUUUGGGGAAAGUAUUAUGUUACGCCGUUCGGAUCUGCA | 0.614
GCAGGAAGUAAAAACAAAUGGAAAUGCUUCGGAUAGUGGCAGGGGUGGGGGUUGCUAAGGAAAGGGUGGGAUGGGAGGGGGUAAAGAGUU | 0.0172
GUCCUGUGCUACACAUCGUAUGUACCGAAUCGGAAAAAAGGAAAAAAGGAAAAAAGGGAAAGUAUUAUGUUACGCCGUUCGGAUCUGCAC | -0.747
UGUGCUACACAUCGUAUGUACCGAAUCGGGAAAAAAAGGGGAAAAAAAGGGGAAAAAAAGGGGAAAGUAUUAUGUUACGCCGUUCGGAUC | -0.0948
ACCAUGCAGGUGGGCAUCUUUGGGAAGUGGGGCAAGGGGGGGAUAGGGAGGGGGGUAACACUUUGGGAACAGGUGGUCCCAGGUCGUAAA | 0.806

Series 4
Target: Interferon regulatory factor 5, full length, phosphomimetic (IRF5, Homo sapiens, UniProt Q13568-2, residues 1-514, S451D/S453D/S456D/S462D)
Method: protein-binding microarray
Form: double-stranded DNA, one strand shown
Matrix: in vitro
Concentration: 940 nM top
Notes: 60-bp whole probe
Added: salmon DNA 0.4 mg/ml
Baseline: random background probes
Reading: higher = stronger binding
Constant ends, left off below: GCCTAGCAC … GTCTTGATTCGCTTGACGCTGCTG
Oligonucleotide | fitted relative affinity [z-score]
GACGATTTCAGTTCCTAGACGTGCTAG | 0.621
GACGAACTGAGTCGCGAGACGTGCTAG | -0.629
TCATCCATCACTTTCCAACTGTGCTAG | 1.3
TTAGGTATCGGGACTGGGGTAGTGCTA | 4.06
GACGGACTGGACTTTCGGTACGTGCTA | 2.12
GACGGACTGGGTATCGGGCCGTGCTAG | 0.362
TTGAAAAAATATTTATTTCAGTGCTAG | -0.127
TCACATCTGCAAGATCCAACTGTGCTA | 0.253
GACGATATCATTATCGAGACGTGCTAG | -0.0666
GACGGACTGATACTGCTGACGTGCTAG | -0.08
GACGATTCCAGTTTCAAGACGTGCTAG | 1.28
AGTATGTTCCCTATTTAAGAGTGCTAG | 1.01
GACTGTATCGGACTGGGGACGTGCTAG | 0.713
GACGATTTCAGTCTGGAGACGTGCTAG | 0.0426
TCATATATATATTGTTAGACTGTGCTA | 0.147
CTCCCCCTCAGATCTGCCGTCGTGCTA | -0.23
GACGAGTTCAGTTTCGAGACGTGCTAG | 5.16
TTGGGTTCCGGTTTCGGTTAGTGCTAG | 9.37
TTAGGTATCCTTTTCCCTTAGTGCTAG | 0.998
GGCGATTTCGGGTTTCGAGACGTGCTA | 2.52
GACGAGTTCGGGTTTCGAGACGTGCTA | 2.09
TTAGATTTCAGAATGGATTAGTGCTAG | -0.0773
TCATATGTATATATGTGACTGTGCTAG | -0.398
TTAGGTATCGGTATCGGTTTGTGCTAG | 11.3
TTTGGTATCGGGTATCGGTTAGTGCTA | 10.1

For quick reference, copied from above (series 3):
Oligonucleotide | log2 enrichment
AAGUCCUGUGCUACACAUCGUAUGUACCGAAUCGGAAAAAAAGGAGGUUUUUUUGGAAAGUAUUAUGUUACGCCGUUCGGAUCUGCACUU | -1.01
UGGGAGGUGGAUUUUGUUUAUUUUUUUAGCUCAUUUCCAGGUGUGGGAAUUUUUUUUUAAUAUGUGUCAUGAAUAAAGUUGUUUUUGAAA | -0.0794
GUCCUGUGCUACACAUCGUAUGUACCGAAUCGGGGAAAAAGGGGUUUGGGGAAAGGGGAAAGUAUUAUGUUACGCCGUUCGGAUCUGCAC | 0.448
UGGCCCUGGUGGCAUGCGGGGAGGAAGAGGUGGCCUCAUGGAUCGUGGUGGUCCCGGUAGAAUGUUCAGAGGUGGCCGUGGUGGAGACAG | 0.0192
GUCCUGUGCUACACAUCGUAUGUACCGAAUCGGGGUUUUGGGGUUUUGGGGUUUUGGGGAAAGUAUUAUGUUACGCCGUUCGGAUCUGCA | 0.614
